Results gathered from unrelated publications.
Parts stem from different laboratories: compare values within a part only. Substitutions count along the parent as printed.

Block 1
Target: Interferon regulatory factor 7, full length, phosphomimetic (IRF7, Homo sapiens, UniProt Q92985, residues 1-503, S101K/S471D/S472D/S475D/S476D/S477D/S483D/S484D/S487D)
Technique: protein-binding microarray
Form: double-stranded DNA, one strand shown
Matrix: in vitro
Concentration: 250 nM
Notes: 60-bp whole probe
With: salmon DNA 0.4 mg/ml
Reference: random background probes
Reading: higher = stronger binding
Measurement: log fluorescence
Constant ends, left off below: GCCTAGCAC … GTCTTGATTCGCTTGACGCTGCTG
Residues (chain): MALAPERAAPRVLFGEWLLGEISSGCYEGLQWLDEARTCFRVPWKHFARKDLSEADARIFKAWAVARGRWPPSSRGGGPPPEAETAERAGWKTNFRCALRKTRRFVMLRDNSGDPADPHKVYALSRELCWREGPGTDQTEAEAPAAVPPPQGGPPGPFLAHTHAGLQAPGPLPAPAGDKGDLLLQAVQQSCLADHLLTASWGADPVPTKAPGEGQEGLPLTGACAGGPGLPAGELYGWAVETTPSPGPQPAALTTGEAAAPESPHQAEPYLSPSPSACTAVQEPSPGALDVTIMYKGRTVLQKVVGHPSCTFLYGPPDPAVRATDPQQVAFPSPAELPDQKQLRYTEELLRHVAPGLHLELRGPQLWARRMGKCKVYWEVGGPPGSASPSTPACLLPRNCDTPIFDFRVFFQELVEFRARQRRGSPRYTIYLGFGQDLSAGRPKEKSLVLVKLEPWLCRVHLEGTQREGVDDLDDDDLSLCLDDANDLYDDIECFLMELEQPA
Sequence = TTTGGTTTCGACTATCGGTTAGTGCTA; result = 7.22 z-score
Sequence = TCAATTTTTACCCTCCTACTGTGCTAG; result = 0.121 z-score
Sequence = GACGTTATCGACTATCGGGACGTGCTA; result = -0.0593 z-score
Sequence = GACGGTTTCTGTATCGGGACGTGCTAG; result = 3.16 z-score
Sequence = TTAGGTTTCCTTTTCCTGTAGTGCTAG; result = 6.68 z-score
Sequence = TGGTCTTTCCACTTTCTTTTGTGCTAG; result = 1.57 z-score
Sequence = GACGGACTGCTTTTCCTGATGTGCTAG; result = -0.0809 z-score
Sequence = GACGATCTGGGGTTTCGAGACGTGCTA; result = 1.87 z-score
Sequence = GGCGGTTTCCTTATCCTGACGTGCTAG; result = 2.62 z-score

Block 2
Target: CCNA2, cyclin fold, Cln2 fusion (human)
Technique: yeast growth competition, sequencing
Matrix: yeast
Notes: weak parent motif
Reference: not given
Reading: higher = stronger binding
Measurement: normalised enrichment score
Starting sequence: DBF4 docking peptide (human); DDIVSKLVFDFVE
Change = DDIVSKLVADFVE [F9A]; result = -0.438
Change = DAIVSKLVFDFVE [D2A]; result = -0.214
Change = DDIVSKLVFDAVE [F11A]; result = -0.275
Change = DDAVSKLVFDFVE [I3A]; result = -0.545
Change = DDIASKLVFDFVE [V4A]; result = -0.176
Change = DDIVSKAVFDFVE [L7A]; result = -0.655

Block 3
Target: RING finger protein unkempt homolog, zinc fingers 1-6, GST-SBP tag (UNK, Homo sapiens, UniProt Q9C0B0, residues 30-357)
Technique: RNA Bind-n-Seq
Form: RNA
Matrix: in vitro
Concentration: not given
Notes: RNA with constant flanks, human and mouse sites, ends assumed
Reference: input RNA pool
Reading: higher = stronger binding
Measurement: bound/input enrichment
Constant ends, left off below: GGGAGUUCUACAGUCCGACGAUC … CAACAGAGGAUUGAGCAUCA
Residues (chain): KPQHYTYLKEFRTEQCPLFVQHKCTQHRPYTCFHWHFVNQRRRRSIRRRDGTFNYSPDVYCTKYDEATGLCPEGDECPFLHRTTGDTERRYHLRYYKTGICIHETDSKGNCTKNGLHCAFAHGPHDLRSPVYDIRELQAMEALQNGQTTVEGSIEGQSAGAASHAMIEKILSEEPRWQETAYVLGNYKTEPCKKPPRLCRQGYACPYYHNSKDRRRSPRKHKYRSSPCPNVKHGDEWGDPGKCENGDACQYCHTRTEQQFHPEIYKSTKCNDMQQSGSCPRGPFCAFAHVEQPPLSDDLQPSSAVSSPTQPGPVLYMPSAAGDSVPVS
Sequence = UGUGGCCUUUCUGAGGAGAAAGCUGUGGAGAAGUUUGGGGAAGAAAAUAUUGAGGUUUACCAUAGUUACUUUUGGCCAUUGGAAUGGACGAUUCCGUCAAGAGAUAACAACAAAUGUUAU; result = 0.395 ratio
Sequence = AGACCAGAAACCAUGUUGUGAUUUCUUUUUAUCUUAGAAAACAUUUCUAUUUACAAUAAAUAGUUACUAUGUAAAUAAUGUACAUAUGUAUUAAUUUCUUCAGUGUUAUACAAUGUAUAU; result = 4.72 ratio
Sequence = UCCUCCCUGGGAGCGUUCGCGCUCUGGGUCACUGGAUUGUUUCGUGUUUAUGUGUGAUUGUACCAAGGAACUUAGCCUCAUGUAGCAUGUACAGGGUUGUAAUGGUGACCCAGCAGCGAG; result = 0.182 ratio
Sequence = CUAGGAGAGUCAAGUAAGAAAAAUAACGAAUCUAAGUGAUAAACAUUCAAGAAAUUCUCUAAAUAAGAGAUUUAUUUAUAAUUUUAAUAUCUCAGGGUUCUUUUUAGGUUUCCAGGGGAA; result = 0.827 ratio
Sequence = AAGAUGUCAGGAUGAAUUGUCAAAUGUAUGGCUCUGUGUGUGCGAGGUGUGUGUGUGUGUGUGUGUGUGUGUGUGUGUGUGUGUGUGUGUGUCUUUUGCUUCUCCAGAAUGGGAAGUUGU; result = 2.61 ratio
Sequence = UCUCUUUUGGCUGUCCUGGGAGCCCCAGUCCCAUCCGACCUACAGGCCCAAAGACACCCAACCACAGGCCAGAUACUGGGUUACAAAGAGGUCUUGCUGGAGAACACAAAUCUCUCGGCU; result = 0.0514 ratio
Sequence = CCUGGGCUCUAGCCUCCCUUAGUUGAGCACAGAACUCACAGCUCUGGUGCAGGCAGACCCUGCCACUCAGGUGCCUAAGCAAAGGACAAGCCGUCCAGAUAGAACUGUACAUAGCUAGUG; result = 0.955 ratio
Sequence = GAAGUAUUUGACGCUUUAAAGUUAGACUCUAUGGAAAGCUCGGAGACGUCAUGUCGAGACCUGUCCAGCUCACCCCCUGGGCCUUACGGUCAAGAAAUGUAUGUGUUUCGAUCUGAGGAG; result = 0.0403 ratio

Mixed results
Molecule = PhoQ, residues 284 288 289 292 302 303 SSTLSG; target = PhoP, residues 12 14 15 18 19 SYFRT (Escherichia coli, UniProt P23836); test = Sort-seq, item: YFP reporter; system = E. coli; conditions = PhoQ-PhoP variant library, with: 10 µM Mg2+; scale = reference: high Mg2+ state, higher = stronger signaling; measurement = fold induction; result = 9.95

For quick reference, copied from above (block 2):
Change = DAIVSKLVFDFVE [D2A]; result = -0.214
Change = DDIVSKLVFDAVE [F11A]; result = -0.275
